Assay results from different studies.
Parts stem from different laboratories: compare values within a part only. Values joined by “and” are separate records of one study, mostly repeats; a detail may differ.
UniProt P11802, sequence (whole entry, looked up): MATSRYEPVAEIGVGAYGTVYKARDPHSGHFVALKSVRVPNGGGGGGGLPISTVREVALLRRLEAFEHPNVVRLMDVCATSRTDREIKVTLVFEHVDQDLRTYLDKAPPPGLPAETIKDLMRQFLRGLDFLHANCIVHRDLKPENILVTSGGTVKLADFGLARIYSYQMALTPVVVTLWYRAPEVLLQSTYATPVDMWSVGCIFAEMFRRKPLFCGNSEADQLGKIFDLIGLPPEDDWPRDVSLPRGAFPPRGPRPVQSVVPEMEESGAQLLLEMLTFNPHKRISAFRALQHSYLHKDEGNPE
UniProt P08069, sequence (whole entry, looked up): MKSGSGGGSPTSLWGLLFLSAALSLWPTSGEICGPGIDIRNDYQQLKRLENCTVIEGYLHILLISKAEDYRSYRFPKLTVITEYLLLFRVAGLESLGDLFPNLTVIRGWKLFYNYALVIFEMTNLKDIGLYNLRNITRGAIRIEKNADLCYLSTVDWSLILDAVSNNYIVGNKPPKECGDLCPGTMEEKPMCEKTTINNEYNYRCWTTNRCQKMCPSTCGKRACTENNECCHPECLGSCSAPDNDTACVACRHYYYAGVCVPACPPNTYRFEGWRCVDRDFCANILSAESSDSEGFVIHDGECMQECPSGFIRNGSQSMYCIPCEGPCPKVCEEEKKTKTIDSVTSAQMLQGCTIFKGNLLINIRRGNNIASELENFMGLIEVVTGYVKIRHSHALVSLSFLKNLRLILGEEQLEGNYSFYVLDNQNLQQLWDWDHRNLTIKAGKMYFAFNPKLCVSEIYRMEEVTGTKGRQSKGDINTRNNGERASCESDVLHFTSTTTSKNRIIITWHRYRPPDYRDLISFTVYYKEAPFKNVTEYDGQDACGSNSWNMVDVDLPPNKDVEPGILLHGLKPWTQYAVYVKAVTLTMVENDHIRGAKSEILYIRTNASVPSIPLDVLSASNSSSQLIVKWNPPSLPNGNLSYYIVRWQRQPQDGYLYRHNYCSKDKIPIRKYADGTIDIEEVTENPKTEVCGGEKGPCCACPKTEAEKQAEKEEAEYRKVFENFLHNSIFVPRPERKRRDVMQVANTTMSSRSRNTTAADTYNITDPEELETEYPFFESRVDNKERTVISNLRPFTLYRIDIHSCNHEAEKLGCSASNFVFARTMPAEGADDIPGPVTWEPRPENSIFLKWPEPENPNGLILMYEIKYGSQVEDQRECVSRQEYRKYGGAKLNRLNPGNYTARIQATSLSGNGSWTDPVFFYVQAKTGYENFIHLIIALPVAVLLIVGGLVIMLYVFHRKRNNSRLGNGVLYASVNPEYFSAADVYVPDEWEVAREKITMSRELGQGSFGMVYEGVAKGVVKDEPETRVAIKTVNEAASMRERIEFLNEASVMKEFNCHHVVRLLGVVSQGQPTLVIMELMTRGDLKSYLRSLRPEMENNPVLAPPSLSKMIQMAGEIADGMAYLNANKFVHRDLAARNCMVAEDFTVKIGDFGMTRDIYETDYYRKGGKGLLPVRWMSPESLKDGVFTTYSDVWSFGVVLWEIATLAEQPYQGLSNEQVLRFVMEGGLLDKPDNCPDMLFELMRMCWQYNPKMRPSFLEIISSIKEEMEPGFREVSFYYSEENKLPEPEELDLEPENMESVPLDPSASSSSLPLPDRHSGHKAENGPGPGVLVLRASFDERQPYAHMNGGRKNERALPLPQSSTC
UniProt P22455, sequence (whole entry, looked up): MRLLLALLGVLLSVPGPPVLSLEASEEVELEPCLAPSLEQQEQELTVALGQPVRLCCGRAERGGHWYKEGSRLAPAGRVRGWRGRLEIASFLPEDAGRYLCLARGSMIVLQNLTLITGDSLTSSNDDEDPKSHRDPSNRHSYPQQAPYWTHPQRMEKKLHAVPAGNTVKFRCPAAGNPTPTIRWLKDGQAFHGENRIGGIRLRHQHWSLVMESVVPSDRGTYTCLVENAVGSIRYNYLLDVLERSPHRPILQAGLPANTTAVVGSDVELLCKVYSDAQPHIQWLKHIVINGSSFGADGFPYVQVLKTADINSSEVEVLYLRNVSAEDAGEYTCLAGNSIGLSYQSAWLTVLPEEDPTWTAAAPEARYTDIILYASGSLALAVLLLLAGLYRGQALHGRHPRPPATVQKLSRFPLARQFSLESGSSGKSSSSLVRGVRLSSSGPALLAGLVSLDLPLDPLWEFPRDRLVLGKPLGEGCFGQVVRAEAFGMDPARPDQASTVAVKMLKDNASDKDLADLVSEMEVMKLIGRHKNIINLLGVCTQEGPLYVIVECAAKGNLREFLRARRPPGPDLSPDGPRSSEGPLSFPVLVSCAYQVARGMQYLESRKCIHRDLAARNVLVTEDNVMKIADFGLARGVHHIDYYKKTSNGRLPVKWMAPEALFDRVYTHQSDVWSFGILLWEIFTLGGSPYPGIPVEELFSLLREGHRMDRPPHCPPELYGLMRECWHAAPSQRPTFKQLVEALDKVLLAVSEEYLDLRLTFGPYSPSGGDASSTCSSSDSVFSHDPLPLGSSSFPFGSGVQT
UniProt P29597, sequence (whole entry, looked up): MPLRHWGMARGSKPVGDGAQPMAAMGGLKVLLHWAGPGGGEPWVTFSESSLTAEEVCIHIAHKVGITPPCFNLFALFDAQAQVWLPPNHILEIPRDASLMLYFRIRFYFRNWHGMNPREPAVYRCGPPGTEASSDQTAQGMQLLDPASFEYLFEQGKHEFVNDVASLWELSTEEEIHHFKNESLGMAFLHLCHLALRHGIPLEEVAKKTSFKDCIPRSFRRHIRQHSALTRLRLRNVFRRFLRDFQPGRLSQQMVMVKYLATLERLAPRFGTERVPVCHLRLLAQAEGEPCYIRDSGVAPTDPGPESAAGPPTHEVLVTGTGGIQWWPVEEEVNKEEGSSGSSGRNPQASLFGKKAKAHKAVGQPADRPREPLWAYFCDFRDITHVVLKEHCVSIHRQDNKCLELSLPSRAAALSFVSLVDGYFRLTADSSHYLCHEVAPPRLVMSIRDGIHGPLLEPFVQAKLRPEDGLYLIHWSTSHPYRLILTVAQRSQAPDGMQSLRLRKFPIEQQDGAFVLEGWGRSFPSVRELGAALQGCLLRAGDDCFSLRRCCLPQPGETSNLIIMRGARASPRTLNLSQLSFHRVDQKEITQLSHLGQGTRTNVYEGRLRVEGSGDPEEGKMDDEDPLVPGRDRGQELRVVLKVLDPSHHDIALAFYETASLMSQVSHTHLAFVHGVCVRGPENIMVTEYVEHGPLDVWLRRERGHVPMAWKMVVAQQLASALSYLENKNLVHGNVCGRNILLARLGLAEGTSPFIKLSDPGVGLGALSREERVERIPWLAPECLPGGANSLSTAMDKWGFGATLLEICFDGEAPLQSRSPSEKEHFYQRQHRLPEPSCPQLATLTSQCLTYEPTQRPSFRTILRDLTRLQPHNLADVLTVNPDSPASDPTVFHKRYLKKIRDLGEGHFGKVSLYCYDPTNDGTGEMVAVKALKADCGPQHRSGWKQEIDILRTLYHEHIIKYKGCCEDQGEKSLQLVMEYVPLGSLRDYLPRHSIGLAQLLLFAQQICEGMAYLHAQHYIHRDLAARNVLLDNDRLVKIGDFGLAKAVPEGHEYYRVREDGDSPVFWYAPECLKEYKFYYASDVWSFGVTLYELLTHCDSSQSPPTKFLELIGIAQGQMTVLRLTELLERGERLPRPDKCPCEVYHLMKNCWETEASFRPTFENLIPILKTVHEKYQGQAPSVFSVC

Series 1
Cell line: mouse MPNST tumor cells
Technique: high-content immunofluorescence imaging
Item: nuclear SOX9
Concentration: 10 µM
Time: 12 h
Setting: mean of 2 replicates
Reference: DMSO control
Direction: higher = more nuclear SOX9
Structure (SMILES)	nuclear SOX9 intensity
C#C[C@]1(O)CC[C@H]2[C@@H]3CCC4=CC(=O)CC[C@]4(C)[C@H]3CC[C@@]21C	91.5 % of DMSO
CN(C)C1C(=O)C(C(N)=O)=C(O)C2(O)C(=O)C3=C(O)c4c(O)cccc4C(C)(O)C3CC12 (stereo not drawn)	101 % of DMSO
C[C@]12CC[C@H](O)C[C@H]1CC[C@@H]1[C@@H]2CC[C@]2(C)[C@@](O)(c3ccoc3)CC[C@]12O	93.1 % of DMSO
CC(=O)OCC1=C(C(=O)O)N2C(=O)C(N)C2SC1 (stereo not drawn)	99.3 % of DMSO
CC(=O)NCCc1c[nH]c2ccccc12	98.8 % of DMSO
c1ccc(CCCCN2CCC(c3ccccc3)CC2)cc1	167 % of DMSO

Series 2
Host: mouse
Medium: microsomes or S9
Concentration: 2 µM
Time: 0.5 h
SMILES	remaining compound [%]
Cc1ccc(C2NCc3ccccc3-n3cccc32)c(C)c1 (stereo not drawn)	8.28
CC(C)(CO)CCCNC(=O)N1CCC2(CC1)OCCO2	75.7
COc1cc(=O)n(-c2ccc(C#N)c(Cl)c2C)nc1C	0

Series 3
Observed: AlphaScreen signal
Technique: AlphaScreen counter screen
Medium: His6 peptide without bromodomain
Concentration: 50 µM
Setting: assay interference check
SMILES	inhibition [%]
COc1ccc2c(c1)/C(=C/c1cnc[nH]1)C(=O)N2	30.6
Cc1ccc(NC=C2C(=O)NC(=O)N(C)C2=O)cc1	10.1
COC(=O)C1(O)CC2OC1(C)n1c3ccccc3c3c4c(c5c6ccccc6n2c5c31)C(=O)NC4 (stereo not drawn)	27.6

Series 4
Target: Calcium/calmodulin-dependent protein kinase type II subunit alpha (CAMK2A, Homo sapiens, UniProt Q9UQM7)
UniProt Q9UQM7, sequence (whole entry, looked up): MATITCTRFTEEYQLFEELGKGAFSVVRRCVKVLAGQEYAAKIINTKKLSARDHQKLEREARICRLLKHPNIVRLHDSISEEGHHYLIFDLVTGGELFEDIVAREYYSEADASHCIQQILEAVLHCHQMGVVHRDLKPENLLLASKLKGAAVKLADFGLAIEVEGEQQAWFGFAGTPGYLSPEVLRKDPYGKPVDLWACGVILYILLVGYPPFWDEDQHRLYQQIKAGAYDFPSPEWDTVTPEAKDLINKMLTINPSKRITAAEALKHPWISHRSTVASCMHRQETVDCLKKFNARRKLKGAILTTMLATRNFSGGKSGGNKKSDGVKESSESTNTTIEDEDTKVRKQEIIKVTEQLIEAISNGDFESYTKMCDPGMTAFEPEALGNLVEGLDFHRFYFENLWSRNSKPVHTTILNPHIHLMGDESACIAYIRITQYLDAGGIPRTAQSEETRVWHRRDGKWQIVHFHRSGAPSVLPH
Observed: enzyme activity
Action: inhibitor
Concentration: 10 µM
Structure (SMILES)	inhibition
CC[C@@H](C)[C@@H]1NC(=O)[C@@H]2CCCN2C(=O)[C@H](Cc2ccccc2)N(C)C(=O)[C@H](Cc2ccccc2)NC(=O)[C@H](C(C)C)N(C)C(=O)[C@@H]([C@H](C)CC)OC(=O)[C@H](C(C)(C)O)N(C)C(=O)[C@H](CC(C)C)NC(=O)[C@H](C(C)C)N(C)C1=O	-34%
COc1ccc(C(CN(C)C)C2(O)CCCCC2)cc1 (stereo not drawn)	-12%
C[C@H]1CC[C@@H]2N(C1)C[C@H]1[C@@H]3C[C@H]4[C@@H](CC(=O)[C@H]5C[C@@H](O)CC[C@@]54C)[C@@H]3CC[C@H]1[C@]2(C)O	8%
CC(=O)OC[C@]12[C@H](OC(C)=O)[C@H](OC(C)=O)[C@@H]3[C@@H](OC(C)=O)[C@@]14O[C@@]3(C)COC(=O)c1cccnc1CC[C@H](C)C(=O)O[C@@H]([C@H](OC(=O)c1ccccc1)[C@@H]2OC(C)=O)[C@]4(C)O	-6%
COc1cc2c(cc1O)-c1c(OC)c(O)cc3c1[C@H](C2)NCC3	-24%

Series 5
Compound: COC(=O)c1cc(N(C)C(=O)c2ccn3ncc(-c4ccc(C(=O)O)cc4)c3c2)ccc1Cl
target	observed	action	IC50 [µM]
Calcium/calmodulin-dependent protein kinase type 1 (CAMK1, Homo sapiens, UniProt Q14012)	enzyme activity	inhibitor	> 30
Protein kinase C theta type (PRKCQ, Homo sapiens, UniProt Q04759)	enzyme activity	inhibitor	> 30
Serine/threonine-protein kinase N2 (PKN2, Homo sapiens, UniProt Q16513)	enzyme activity	inhibitor	> 30
Aurora kinase A (AURKA, Homo sapiens, UniProt O14965)	enzyme activity	inhibitor	10
TGF-beta receptor type-1 (TGFBR1, Homo sapiens, UniProt P36897)	enzyme activity	inhibitor	> 30
Non-receptor tyrosine-protein kinase TYK2 (TYK2, Homo sapiens, UniProt P29597)	enzyme activity	inhibitor	23.5
Mu-type opioid receptor (OPRM1, Homo sapiens, UniProt P35372)	cell-free assay	–	> 30
Fibroblast growth factor receptor 4 (FGFR4, Homo sapiens, UniProt P22455)	enzyme activity	inhibitor	> 30
Cyclin-dependent kinase 4 (CDK4, Homo sapiens, UniProt P11802)	enzyme activity	inhibitor	> 30
human phosphodiesterase 3	enzyme activity	–	> 30
Insulin-like growth factor 1 receptor (IGF1R, Homo sapiens, UniProt P08069)	enzyme activity	inhibitor	> 30
5'-AMP-activated protein kinase catalytic subunit alpha-2 (PRKAA2, Homo sapiens, UniProt P54646)	enzyme activity	inhibitor	4.7
Tribbles homolog 2 (TRIB2, Homo sapiens, UniProt Q92519)	enzyme activity	inhibitor	4.61
Sodium-dependent dopamine transporter (SLC6A3, Homo sapiens, UniProt Q01959)	cell-free assay	–	> 30
Mast/stem cell growth factor receptor Kit (KIT, Homo sapiens, UniProt P10721)	enzyme activity	inhibitor	> 30
Tyrosine-protein kinase ZAP-70 (ZAP70, Homo sapiens, UniProt P43403)	enzyme activity	inhibitor	> 30
Protein kinase C alpha type (PRKCA, Homo sapiens, UniProt P17252)	enzyme activity	inhibitor	> 30

Mixed results
Structure (SMILES)	target or system	assay	test system	setting	measurement	value
CO[C@@H]1[C@@H](OC(N)=O)[C@@H](O)[C@H](Oc2ccc3c(O)c(NC(=O)c4ccc(O)c(CC=C(C)C)c4)c(=O)oc3c2C)OC1(C)C	–	–	FVB/129P2 mice, Brca1-/- TNBC	dose not given	survival time	21 days and 47 days and 29 days and 14 days and 38 days and 11 days and 34 days
CO[C@@H]1[C@H](N(C)C(=O)c2ccccc2)C[C@H]2O[C@]1(C)n1c3ccccc3c3c4c(c5c6ccccc6n2c5c31)C(=O)NC4	Dual specificity tyrosine-phosphorylation-regulated kinase 1B (DYRK1B, Homo sapiens, UniProt Q9Y463)	cell-free assay, inhibitor	–	1 µM	inhibition	93%

Some of these lines once more (series 5):
target	observed	action	IC50 [µM]
Calcium/calmodulin-dependent protein kinase type 1 (CAMK1, Homo sapiens, UniProt Q14012)	enzyme activity	inhibitor	> 30
Protein kinase C theta type (PRKCQ, Homo sapiens, UniProt Q04759)	enzyme activity	inhibitor	> 30
Serine/threonine-protein kinase N2 (PKN2, Homo sapiens, UniProt Q16513)	enzyme activity	inhibitor	> 30
Aurora kinase A (AURKA, Homo sapiens, UniProt O14965)	enzyme activity	inhibitor	10
